Experimental data collected from several papers.
Values joined by “and” are separate records of one study, mostly repeats; a detail may differ. ± marks the error that the study gave.
ZBTB11/CRBN: ZBTB11/CRBN (Homo sapiens, UniProt O95625+Q96SW2)
Sequence of UniProt Q96SW2 (whole entry, looked up): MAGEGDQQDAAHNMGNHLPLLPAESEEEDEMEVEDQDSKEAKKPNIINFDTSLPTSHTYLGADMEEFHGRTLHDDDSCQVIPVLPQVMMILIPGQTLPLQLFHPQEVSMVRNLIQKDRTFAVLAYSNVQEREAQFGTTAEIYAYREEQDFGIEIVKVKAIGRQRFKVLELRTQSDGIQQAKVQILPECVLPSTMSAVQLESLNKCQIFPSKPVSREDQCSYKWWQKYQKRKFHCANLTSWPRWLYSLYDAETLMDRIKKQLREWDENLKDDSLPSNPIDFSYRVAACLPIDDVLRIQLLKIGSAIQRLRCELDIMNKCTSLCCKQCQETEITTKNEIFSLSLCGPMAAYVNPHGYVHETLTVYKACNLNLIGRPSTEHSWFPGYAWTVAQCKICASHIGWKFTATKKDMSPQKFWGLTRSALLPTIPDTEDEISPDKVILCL
Sequence of UniProt O95625 (whole entry, looked up): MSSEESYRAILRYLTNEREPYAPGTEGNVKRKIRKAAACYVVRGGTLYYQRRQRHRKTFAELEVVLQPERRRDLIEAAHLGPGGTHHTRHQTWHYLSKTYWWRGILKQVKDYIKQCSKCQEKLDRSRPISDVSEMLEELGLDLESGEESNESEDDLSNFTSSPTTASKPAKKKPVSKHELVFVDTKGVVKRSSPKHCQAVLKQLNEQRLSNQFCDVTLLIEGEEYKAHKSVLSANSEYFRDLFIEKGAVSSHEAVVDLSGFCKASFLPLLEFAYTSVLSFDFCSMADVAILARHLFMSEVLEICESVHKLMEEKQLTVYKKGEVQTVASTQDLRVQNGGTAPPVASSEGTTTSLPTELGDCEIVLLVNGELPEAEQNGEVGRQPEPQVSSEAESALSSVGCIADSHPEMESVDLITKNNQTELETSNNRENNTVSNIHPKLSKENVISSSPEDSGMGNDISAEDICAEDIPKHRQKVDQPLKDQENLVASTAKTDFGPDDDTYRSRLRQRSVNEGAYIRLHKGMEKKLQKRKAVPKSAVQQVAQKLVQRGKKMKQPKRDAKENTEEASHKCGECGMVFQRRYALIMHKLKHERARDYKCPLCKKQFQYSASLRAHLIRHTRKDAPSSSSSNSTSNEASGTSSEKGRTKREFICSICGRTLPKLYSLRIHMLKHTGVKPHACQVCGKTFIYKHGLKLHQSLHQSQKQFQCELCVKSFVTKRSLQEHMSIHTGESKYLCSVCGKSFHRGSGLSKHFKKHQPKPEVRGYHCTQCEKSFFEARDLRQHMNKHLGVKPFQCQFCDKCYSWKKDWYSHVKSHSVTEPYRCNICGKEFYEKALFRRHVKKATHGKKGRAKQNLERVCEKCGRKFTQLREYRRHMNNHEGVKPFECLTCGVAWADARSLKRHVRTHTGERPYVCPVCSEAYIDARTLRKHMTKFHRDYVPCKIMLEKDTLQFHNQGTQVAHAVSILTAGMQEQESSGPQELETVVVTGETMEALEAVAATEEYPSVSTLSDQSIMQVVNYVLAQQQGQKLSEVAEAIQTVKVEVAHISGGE
USP20 ZnF-UBD domain: Ubiquitin carboxyl-terminal hydrolase 20, ZnF-UBD domain (USP20, Homo sapiens, UniProt Q9Y2K6)
Sequence of UniProt Q9Y2K6 (whole entry, looked up): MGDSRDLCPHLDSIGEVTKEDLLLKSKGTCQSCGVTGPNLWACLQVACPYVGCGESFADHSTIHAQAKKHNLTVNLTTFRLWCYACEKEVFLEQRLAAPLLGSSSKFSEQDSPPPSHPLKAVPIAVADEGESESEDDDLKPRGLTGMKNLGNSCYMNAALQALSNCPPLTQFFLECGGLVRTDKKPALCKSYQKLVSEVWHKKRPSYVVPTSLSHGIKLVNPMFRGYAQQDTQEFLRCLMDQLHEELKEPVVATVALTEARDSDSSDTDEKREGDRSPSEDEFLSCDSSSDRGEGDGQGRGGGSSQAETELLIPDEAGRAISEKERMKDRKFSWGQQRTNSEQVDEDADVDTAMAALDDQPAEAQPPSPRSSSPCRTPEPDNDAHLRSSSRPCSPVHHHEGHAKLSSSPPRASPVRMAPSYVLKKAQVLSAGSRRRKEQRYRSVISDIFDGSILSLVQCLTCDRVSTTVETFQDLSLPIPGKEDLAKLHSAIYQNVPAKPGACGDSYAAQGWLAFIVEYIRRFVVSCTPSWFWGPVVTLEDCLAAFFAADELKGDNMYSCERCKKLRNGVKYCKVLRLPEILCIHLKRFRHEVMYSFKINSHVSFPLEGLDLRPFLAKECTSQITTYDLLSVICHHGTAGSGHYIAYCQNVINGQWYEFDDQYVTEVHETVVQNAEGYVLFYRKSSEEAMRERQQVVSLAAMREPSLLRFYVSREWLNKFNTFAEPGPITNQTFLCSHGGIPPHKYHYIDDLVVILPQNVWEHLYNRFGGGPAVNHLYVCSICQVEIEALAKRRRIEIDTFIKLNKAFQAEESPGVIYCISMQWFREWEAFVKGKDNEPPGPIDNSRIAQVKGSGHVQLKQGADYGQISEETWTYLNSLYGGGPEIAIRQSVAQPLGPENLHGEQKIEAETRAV
T1: ssDNA, aptamer; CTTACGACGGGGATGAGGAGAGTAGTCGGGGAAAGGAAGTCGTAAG
Sequence of UniProt P51575 (whole entry, unmodified, looked up): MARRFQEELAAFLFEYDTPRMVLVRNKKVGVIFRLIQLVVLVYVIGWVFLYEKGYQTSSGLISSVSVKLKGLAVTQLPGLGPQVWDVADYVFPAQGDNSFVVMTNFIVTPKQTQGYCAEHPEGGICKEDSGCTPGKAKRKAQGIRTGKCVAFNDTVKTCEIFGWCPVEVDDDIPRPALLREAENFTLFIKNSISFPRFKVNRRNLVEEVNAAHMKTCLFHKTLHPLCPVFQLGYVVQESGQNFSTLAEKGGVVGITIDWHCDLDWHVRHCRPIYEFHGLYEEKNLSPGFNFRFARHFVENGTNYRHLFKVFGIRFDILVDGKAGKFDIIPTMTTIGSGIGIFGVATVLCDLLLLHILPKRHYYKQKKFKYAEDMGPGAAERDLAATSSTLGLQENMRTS
Sequence of UniProt Q8TCS8 (whole entry, looked up): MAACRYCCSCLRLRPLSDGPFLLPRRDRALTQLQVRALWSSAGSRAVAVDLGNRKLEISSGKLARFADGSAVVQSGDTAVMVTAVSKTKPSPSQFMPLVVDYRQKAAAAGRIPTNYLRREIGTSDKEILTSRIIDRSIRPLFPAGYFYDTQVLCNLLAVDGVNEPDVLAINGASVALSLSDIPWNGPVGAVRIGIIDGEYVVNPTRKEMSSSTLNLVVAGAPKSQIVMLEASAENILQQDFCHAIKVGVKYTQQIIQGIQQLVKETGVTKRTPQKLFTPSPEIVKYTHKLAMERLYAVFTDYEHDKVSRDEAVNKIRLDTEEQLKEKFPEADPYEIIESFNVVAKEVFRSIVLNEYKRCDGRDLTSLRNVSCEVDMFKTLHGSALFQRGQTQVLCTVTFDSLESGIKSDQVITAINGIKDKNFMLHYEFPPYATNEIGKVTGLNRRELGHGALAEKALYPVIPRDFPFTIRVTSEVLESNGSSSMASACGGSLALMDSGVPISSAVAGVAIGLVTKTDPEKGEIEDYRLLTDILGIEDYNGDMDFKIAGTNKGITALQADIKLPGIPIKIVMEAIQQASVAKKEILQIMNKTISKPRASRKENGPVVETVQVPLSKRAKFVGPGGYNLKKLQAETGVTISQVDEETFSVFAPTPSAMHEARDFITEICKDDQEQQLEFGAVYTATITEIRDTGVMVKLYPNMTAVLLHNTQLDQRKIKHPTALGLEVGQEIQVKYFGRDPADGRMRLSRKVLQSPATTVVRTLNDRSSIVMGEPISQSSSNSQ
Sequence of UniProt Q64663 (whole entry, unmodified, looked up): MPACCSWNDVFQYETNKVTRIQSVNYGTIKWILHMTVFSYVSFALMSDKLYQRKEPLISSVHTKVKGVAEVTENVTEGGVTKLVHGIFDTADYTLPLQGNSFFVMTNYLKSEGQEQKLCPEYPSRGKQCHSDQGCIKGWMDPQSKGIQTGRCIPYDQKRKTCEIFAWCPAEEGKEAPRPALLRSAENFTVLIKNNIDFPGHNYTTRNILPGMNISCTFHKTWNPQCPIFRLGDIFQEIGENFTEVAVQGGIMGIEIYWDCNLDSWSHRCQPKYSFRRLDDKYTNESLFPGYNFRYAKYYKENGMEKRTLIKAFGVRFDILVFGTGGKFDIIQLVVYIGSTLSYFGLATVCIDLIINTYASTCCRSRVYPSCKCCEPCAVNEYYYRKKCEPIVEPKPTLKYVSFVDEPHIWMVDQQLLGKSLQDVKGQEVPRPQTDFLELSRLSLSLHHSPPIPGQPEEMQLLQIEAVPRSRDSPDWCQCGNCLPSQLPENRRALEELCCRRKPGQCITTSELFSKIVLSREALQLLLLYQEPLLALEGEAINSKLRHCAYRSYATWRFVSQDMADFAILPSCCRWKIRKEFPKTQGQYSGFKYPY
Sequence of UniProt Q16774 (whole entry, unmodified, looked up): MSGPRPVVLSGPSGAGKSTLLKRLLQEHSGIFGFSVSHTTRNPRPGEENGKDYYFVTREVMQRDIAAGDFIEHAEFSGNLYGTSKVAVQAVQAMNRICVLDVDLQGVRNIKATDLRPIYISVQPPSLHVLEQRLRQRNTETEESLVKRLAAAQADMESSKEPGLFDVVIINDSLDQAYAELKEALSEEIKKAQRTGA
Sequence of UniProt O00482 (whole entry, looked up): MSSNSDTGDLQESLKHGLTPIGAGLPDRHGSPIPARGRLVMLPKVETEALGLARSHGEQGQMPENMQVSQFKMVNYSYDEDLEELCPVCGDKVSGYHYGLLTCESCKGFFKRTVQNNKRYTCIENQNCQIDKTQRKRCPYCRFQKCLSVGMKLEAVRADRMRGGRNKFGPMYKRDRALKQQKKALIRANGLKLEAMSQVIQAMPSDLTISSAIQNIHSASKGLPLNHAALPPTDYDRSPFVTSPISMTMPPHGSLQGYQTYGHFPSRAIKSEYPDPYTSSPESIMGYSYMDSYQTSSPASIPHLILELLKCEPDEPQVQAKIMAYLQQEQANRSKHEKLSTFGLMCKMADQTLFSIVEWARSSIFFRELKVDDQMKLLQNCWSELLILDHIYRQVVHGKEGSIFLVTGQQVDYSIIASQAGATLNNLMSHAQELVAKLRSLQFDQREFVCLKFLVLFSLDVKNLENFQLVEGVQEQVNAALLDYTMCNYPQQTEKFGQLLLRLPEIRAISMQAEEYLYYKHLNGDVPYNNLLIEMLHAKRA

Compound | target or system | assay | system | setting | scale | endpoint | value
O=C(Nc1cccc(C(F)(F)F)c1)N1CCN(c2cccc(C(F)(F)F)c2)CC1 | CatSper channel complex (Homo sapiens, UniProt Q7RTX7+Q86XQ3+Q8NEC5+Q96P56) | ion current, whole-cell patch clamp | human sperm | 10 µM, at +80 mV | – | outward current density | 15 ± 2.4 pA/pF
Cc1cc(Nc2ccc(S(F)(F)(F)(F)F)cc2)n2nc(C(C)(F)F)nc2n1 | Plasmodium vivax | – | human Plasmodium vivax malaria patients | oral, 600 mg | – | patients with cardiac adverse events | 22.2%
O=C1CCC(N2C(=O)C=C(Nc3cccc(C4(NCCc5ccc(Cl)c(C(F)(F)F)c5)CCC4)c3)C2=O)C(=O)N1 (stereo not shown) | ZBTB11/CRBN | degrader, HiBiT | MIA PaCa-2 (ZBTB11/CRBN-HiBiT knock-in) | 10 µM, 5 h | – | Dmax | 60%
CC(=O)Nc1ccc(O)cc1 | BRD4 (Homo sapiens, UniProt O60885) | 19F NMR, refers to: tyrosine 119 | – | 95 µM | baseline: free protein | chemical shift change | 0.043 ppm
O=c1nc(SCc2cc(F)cc(C(F)(F)F)c2)nc(SCc2csc3ccc(Cl)cc23)[nH]1 | TOP2A (Homo sapiens, UniProt P11388) | DNA relaxation | – | 7.8 µM, replicate 1 | – | relaxed DNA | 56.7%
COC(=O)c1cn(C)c2ccc(-c3cccnc3)cc12 | NR5A2 (Homo sapiens, UniProt O00482) | reporter gene, Gal4 hybrid reporter | – | 10 µM | baseline: vehicle | activation | 0.44 fold
O=[N+]([O-])c1cc(C(F)(F)F)ccc1NCc1ccco1 | Endothelial PAS domain-containing protein 1, PAS-B domain (EPAS1, Homo sapiens, UniProt Q99814, N288A) | binding, ITC, reverse mode | – | – | – | TΔS | 1.04 ± 0.07 kcal/mol
Nc1ncnc2c1ncn2[C@@H]1O[C@H](COP(=O)(O)OP(=O)(O)OP(=O)(O)O)[C@@H](O)[C@H]1O | P2X purinoceptor 7 (P2rx7, Rattus norvegicus, UniProt Q64663, Q143A/R125A) | ion current, agonist, two-electrode voltage clamp | Xenopus laevis oocytes | 166 µM | baseline: highest concentration response | normalized current | 0.772 and 0.908 and 0.654
CCC(C)(NCCc1ccc(C)cc1)c1cccc(NC2=CC(=O)N(C3CCC(=O)NC3=O)C2=O)c1 (stereo not shown) | ZBTB11/CRBN | protein degradation, degrader, HiBiT luminescence | MOLT-4 | – | – | Dmax | 29%
O=C(COP(=O)(O)O)[C@@H](O)[C@H](O)[C@H](O)COP(=O)(O)O | PNPT1 (Homo sapiens, UniProt Q8TCS8) | thermal proteome profiling | HepG2 cell lysate | concentration not given, 57 over 37 °C | baseline: compound over control | thermal stability ratio | 0.37 and 0.667 and 0.65
[2H]c1cc(C)c(NC(=O)c2cnc(Nc3cc(N4CCCCC4)nc(C)n3)s2)c(Cl)c1 | YES1 (Homo sapiens, UniProt P07947) | – | – | 0.01 µM | – | inhibition | > 90%
[H]/N=C(/N)NCC(=O)O | SLC6A6 (Homo sapiens, UniProt P31641, L306A) | binding, microscale thermophoresis | – | 1 mM, room temperature, together with: 50 nM labelled protein | higher = more binding | normalised MST signal | -0.0394
O=C(O)c1ccc(Nc2ncc3c(n2)-c2ccc(Cl)cc2C(c2c(F)cccc2F)=NC3)cc1 | human PAK5(h) | kinase activity | – | 1 µM | – | remaining activity | 100%
Cc1cc(=O)oc2cc(OCCCCSC#N)ccc12 | CA12 (Homo sapiens, UniProt O43570) | stopped-flow CO2 hydration | – | – | baseline: Ki CA II over Ki CA XII | selectivity ratio | > 1840
CCC(C)(NCCc1ccc(OC)cc1)c1cccc(NC2=CC(=O)N(C3CCC(=O)NC3=O)C2=O)c1 (stereo not shown) | ZBTB11/CRBN | protein degradation, degrader, HiBiT luminescence | MOLT-4 | – | – | Dmax | 28%
Nc1ncnc2c1ncn2[C@@H]1O[C@H](COP(=O)(O)CP(=O)(O)OP(=O)(O)O)[C@@H](O)[C@H]1O | P2X purinoceptor 1 (P2RX1, Homo sapiens, UniProt P51575, K140A) | saturation binding | HEK293 | 13 nM | – | specific binding | 3620 CCPM and 1130 CCPM and 1040 CCPM
N#Cc1ccc2c(CN3CCOCC3)cc(-c3ccc([C@H]4CCC(=O)N4)cc3)nc2c1 | Advanced glycosylation end product-specific receptor, with DIAPH1 (AGER, Homo sapiens, UniProt Q15109) | acceptor photobleaching | HEK-293T expressing RAGE-eCFP | 5.0 µM, 60 min | – | FRET efficiency | 1.6 ± 0.4%
Nc1nc2c(ncn2[C@@H]2O[C@H](COP(=O)(O)O)[C@@H](O)[C@H]2O)c(=O)[nH]1 | GUK1 (Homo sapiens, UniProt Q16774, D103A) | enzyme activity, NADH-coupled | – | 31.25 µM | – | reaction rate | 4.09 s⁻¹ and 4.57 s⁻¹ and 3.3 s⁻¹
CCCCC[C@H](O)/C=C/[C@H]1[C@H](O)CC(=O)[C@@H]1C/C=C\CCCC(=O)O | PTGER1 (Homo sapiens, UniProt P34995, F334A) | IP1 accumulation, agonist | AD293 | 1 h, EP1 F334A mutant | – | Emax | 103 ± 8.66%
Nc1ncnc2c1ncn2[C@@H]1O[C@H](COP(=O)(O)OP(=O)(O)OP(=O)(O)O)[C@@H](O)[C@H]1O | T1, ssDNA, aptamer | ITC | – | – | – | Kd | 0.782 µM

Compound | target or system | assay | system | setting | scale | endpoint | value
CN1CCN(c2cc(-c3ccncc3)c(-c3ccc4ccccc4c3)nn2)CC1 | LPAR3 (Homo sapiens, UniProt Q9UBY5) | agonist, FLIPR | – | 12.5 µM | – | activation | -1.4%
O=C(O)CNC(=O)c1ccc(C(=O)N2CCC(c3ccc(Cl)cc3)CC2)cn1 | USP20 ZnF-UBD domain | – | – | – | – | Kd | 430 µM
N#Cc1ccn2c(-c3ccncc3)c(-c3ccc(F)cc3)nc2c1 | NLK (Homo sapiens, UniProt Q9UBE8) | NanoBRET | HEK293 | 1.0 µM | – | receptor occupancy | 40 to 70%
CC(C)C[C@H](NC(=O)C[C@H](O)[C@H](CC(C)C)NC(=O)[C@H](Cc1c[nH]cn1)NC(=O)CNC(=O)[C@@H](NC(=O)[C@H](C)NC(=O)[C@H](Cc1c[nH]c2ccccc12)NC(=O)[C@H](CCC(N)=O)NC(=O)[C@@H](Cc1ccccc1)NC(=O)COCCOCCNC(=O)CCC(C(=O)O)N1CCN(CC(=O)O)CCN(CC(=O)O)CCN(CC(=O)O)CC1)C(C)C)C(N)=O (stereo partly shown) [lutetium-177 labelled] | – | – | female BALB/c nu/nu mice, muscle | intravenous, 100 pmol, 2 h, together with: PA 300 µg | – | tissue uptake | 0.05 ± 0.02 %ID/g
NC(N)=NCCC[C@H](N)C(=O)Nc1ccc2ccccc2c1 | rat neuron-specific aminopeptidase | substrate | – | MW 110 kDa | – | kcat | 30.8 s⁻¹
CN1CCC[C@H]1c1cccnc1 | Chrnd/Chrna1/Chrne (Mus musculus, UniProt P02716+P04756+P20782, G173R) | – | – | – | – | kon | 4.33e+07 M⁻¹ s⁻¹
Nc1ncnc2c1ncn2[C@H]1C[C@H](O)[C@@H](CO)O1 | deoxyribonucleoside phosphotransferase I (Trichomonas vaginalis) | substrate | – | together with: p-nitrophenylphosphate 100 mM | – | Km | 2980 ± 450 µM
O=C(O)CCn1c(=O)oc2ccccc21 | USP20 ZnF-UBD domain | – | – | – | – | Kd | > 1000 µM
CC[C@H](CO)N(CCN(N=O)[C@H](CC)CO)N=O | Salmonella typhimurium | mutagenicity, Ames plate incorporation | TA100 | 150 µg/plate, without S9, methanol | – | revertant colonies per plate | 141 ± 7
CCOc1ccc(NC(=O)O[C@@H](Cn2nc(C(C)C)cc2C(C)C)C(C)C)cc1 | Neuronal acetylcholine receptor; alpha4/beta4 (Homo sapiens, UniProt P30926+P43681) | two-electrode voltage clamp | Xenopus oocytes | concentration not given, together with: ACh 3 µM | – | potentiation of ACh response | ~15 fold
CCS(=O)(=O)N1CC(CC#N)(n2cc(-c3ncnc4[nH]ccc34)cn2)C1 | ORM1 (Homo sapiens, UniProt P02763) | 3D fluorescence spectroscopy | – | 7.2 µM | – | Stokes shift | 54 nm
CC[C@@H]1[C@H](F)C(=O)N[C@@H]1COc1nccc2cc(C(N)=O)c(OC)cc12 | IRAK3 (Homo sapiens, UniProt Q9Y616) | ATP-site probe binding, ActivX profiling | THP-1 cell lysate | 0.04 mM, Lys1 site | – | inhibition | 31.1%
N=C(N)NCCC[C@@H](NC(=O)CCOCCOCCNC(=O)[C@H](CCCCNC(=O)CC[C@H](NC(=O)c1ccc(NCc2cnc3nc(N)[nH]c(=O)c3n2)cc1)C(=O)O)NC(=O)CO/N=C/[C@H](F)[C@@H](O)[C@H](O)[C@H](O)CO)C(=O)NCC(=O)N[C@H](CC(=O)O)C(N)=O [fluorine-18 labelled] | – | – | female nude mouse, kidney | intravenous, 1 µg, 2.5 h | – | tissue uptake | 2.05 ± 0.49 %ID/g
CC(C)OCCn1c(=S)[nH]c(=O)c2[nH]ccc21 | Myeloperoxidase (MPO, Homo sapiens, UniProt P05164) | H2O2 consumption, inhibitor, H2O2 electrode | – | 10 µM, 0 s | – | H2O2 concentration | -34.5 µM
CN(C(=O)C(C)(C)c1cc(C(F)(F)F)cc(C(F)(F)F)c1)c1cnc(N2C[C@H]3COCCN3C[C@H]2CO)cc1-c1ccc(F)cc1[14CH3] | – | substrate, refers to: M30/34 formation | human liver microsomes | – | – | Km unbound | ~0.3 µM
CC(=O)N[C@H](C(=O)N1C[C@H](O)C[C@H]1C(=O)NCc1ccc(-c2scnc2C)cc1)C(C)(C)SCCCCCCNC(=O)C[C@@H]1N=C(c2ccc(Cl)cc2)c2c(sc(C)c2C)-n2c(C)nnc21 | Bromodomain-containing protein 3, BD2 (BRD3, Homo sapiens, UniProt Q15059) | binding, ITC | – | 25 °C, compound in cell, protein in syringe | – | −TΔS | 2.61 ± 0.09 kcal/mol
C=CC(=O)N1CCC(Oc2cc3c(Nc4ccc(Cl)c(Cl)c4F)ncnc3cc2OC)CC1 | – | substrate, refers to: metabolite M2 formation | rat liver microsomes | – | – | Km | 3.5 µM
C=CC(=O)N1CCC(COCC(=O)N2CCN(c3nc(-c4cnc(N)nc4C(F)F)nc(N4CCOC[C@@H]4C)n3)CC2)CC1 | Cyclin-dependent kinase 4, with cyclin D3 (CDK4, Homo sapiens, UniProt P11802) | KINOMEscan | – | 1 µM | – | remaining binding | 75%
Cc1nn(CCc2ccccc2)c2ncc(C(=O)NCc3cccnc3)c(Cl)c12 | PREP (Homo sapiens, UniProt P48147) | intact protein MS | – | 50 µM, 4 h, 37 °C | – | protein adduct formation | 100%
Nc1ncnc2c1ncn2[C@@H]1O[C@H](COP(=O)(O)OP(=O)(O)OP(=O)(O)O)[C@@H](O)[C@H]1O | CKMT1A (Homo sapiens, UniProt P12532, D359N) | substrate, ADP-Glo luminescence | – | pH 8.5, forward reaction, D321N mutant, together with: second substrate in excess | – | Km | 110 ± 20 µM

Excerpt of the above:
Compound | target or system | assay | system | setting | scale | endpoint | value
Cc1nn(CCc2ccccc2)c2ncc(C(=O)NCc3cccnc3)c(Cl)c12 | PREP (Homo sapiens, UniProt P48147) | intact protein MS | – | 50 µM, 4 h, 37 °C | – | protein adduct formation | 100%
CC[C@H](CO)N(CCN(N=O)[C@H](CC)CO)N=O | Salmonella typhimurium | mutagenicity, Ames plate incorporation | TA100 | 150 µg/plate, without S9, methanol | – | revertant colonies per plate | 141 ± 7
CCC(C)(NCCc1ccc(OC)cc1)c1cccc(NC2=CC(=O)N(C3CCC(=O)NC3=O)C2=O)c1 (stereo not shown) | ZBTB11/CRBN | protein degradation, degrader, HiBiT luminescence | MOLT-4 | – | – | Dmax | 28%
[2H]c1cc(C)c(NC(=O)c2cnc(Nc3cc(N4CCCCC4)nc(C)n3)s2)c(Cl)c1 | YES1 (Homo sapiens, UniProt P07947) | – | – | 0.01 µM | – | inhibition | > 90%
